# Experimental data of several laboratories.
# Compare with care: the assays were run in different laboratories. ± marks the error that the study gave.
# CYP2C8: Cytochrome P450 2C8 (CYP2C8, Homo sapiens, UniProt P10632)
# Sequence of UniProt P10632 (whole entry, looked up): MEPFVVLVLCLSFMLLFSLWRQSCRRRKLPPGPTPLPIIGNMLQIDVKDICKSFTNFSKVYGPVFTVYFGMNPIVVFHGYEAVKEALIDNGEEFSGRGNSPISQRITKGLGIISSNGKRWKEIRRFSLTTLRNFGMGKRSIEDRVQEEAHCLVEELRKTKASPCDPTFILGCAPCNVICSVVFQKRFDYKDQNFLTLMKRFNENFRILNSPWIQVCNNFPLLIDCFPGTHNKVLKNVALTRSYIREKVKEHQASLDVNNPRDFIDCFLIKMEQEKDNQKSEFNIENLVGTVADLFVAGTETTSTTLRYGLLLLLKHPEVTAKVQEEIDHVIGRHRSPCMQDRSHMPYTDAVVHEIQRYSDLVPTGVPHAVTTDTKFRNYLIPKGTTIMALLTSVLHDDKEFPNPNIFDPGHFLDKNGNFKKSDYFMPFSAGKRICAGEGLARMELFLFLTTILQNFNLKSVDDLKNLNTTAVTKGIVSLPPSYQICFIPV
# CYP2C9: Cytochrome P450 2C9 (CYP2C9, Homo sapiens, UniProt P11712)
# Sequence of UniProt P11712 (whole entry, looked up): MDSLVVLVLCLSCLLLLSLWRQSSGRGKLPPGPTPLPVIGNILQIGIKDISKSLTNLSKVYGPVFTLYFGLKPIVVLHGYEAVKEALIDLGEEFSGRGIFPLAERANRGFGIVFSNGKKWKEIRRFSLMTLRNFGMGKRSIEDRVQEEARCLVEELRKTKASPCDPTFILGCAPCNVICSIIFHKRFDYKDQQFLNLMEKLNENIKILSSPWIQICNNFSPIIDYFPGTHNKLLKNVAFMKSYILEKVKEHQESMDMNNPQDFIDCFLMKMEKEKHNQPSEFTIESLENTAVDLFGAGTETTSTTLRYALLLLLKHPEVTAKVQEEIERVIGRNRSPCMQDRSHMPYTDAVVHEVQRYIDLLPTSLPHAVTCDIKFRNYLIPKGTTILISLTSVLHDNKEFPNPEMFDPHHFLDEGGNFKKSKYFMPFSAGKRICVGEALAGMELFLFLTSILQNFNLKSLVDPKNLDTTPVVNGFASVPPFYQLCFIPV
# CYP2C19: Cytochrome P450 2C19 (CYP2C19, Homo sapiens, UniProt P33261)
# sspA: Glutamyl endopeptidase (sspA, Staphylococcus aureus, UniProt P0C1U8)
# Sequence of UniProt P0C1U8 (whole entry, looked up): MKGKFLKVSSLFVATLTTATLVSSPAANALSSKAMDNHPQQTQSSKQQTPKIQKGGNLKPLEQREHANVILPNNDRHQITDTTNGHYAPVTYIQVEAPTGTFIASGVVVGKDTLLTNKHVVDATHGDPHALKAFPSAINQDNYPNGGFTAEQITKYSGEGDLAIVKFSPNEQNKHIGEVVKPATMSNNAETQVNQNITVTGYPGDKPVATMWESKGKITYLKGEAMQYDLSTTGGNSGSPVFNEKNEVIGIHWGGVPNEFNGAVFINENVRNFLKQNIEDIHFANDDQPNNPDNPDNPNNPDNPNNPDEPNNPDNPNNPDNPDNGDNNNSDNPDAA
# Sequence of UniProt Q06520 (whole entry, looked up): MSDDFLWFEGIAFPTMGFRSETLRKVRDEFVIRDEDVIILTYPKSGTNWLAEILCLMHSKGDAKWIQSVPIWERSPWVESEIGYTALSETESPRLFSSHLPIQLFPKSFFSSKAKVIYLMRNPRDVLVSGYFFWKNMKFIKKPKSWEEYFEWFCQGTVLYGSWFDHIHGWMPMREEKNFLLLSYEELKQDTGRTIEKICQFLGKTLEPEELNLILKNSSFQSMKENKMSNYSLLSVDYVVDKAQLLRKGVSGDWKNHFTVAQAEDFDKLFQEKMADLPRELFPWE
# Sequence of UniProt P33527 (whole entry, looked up): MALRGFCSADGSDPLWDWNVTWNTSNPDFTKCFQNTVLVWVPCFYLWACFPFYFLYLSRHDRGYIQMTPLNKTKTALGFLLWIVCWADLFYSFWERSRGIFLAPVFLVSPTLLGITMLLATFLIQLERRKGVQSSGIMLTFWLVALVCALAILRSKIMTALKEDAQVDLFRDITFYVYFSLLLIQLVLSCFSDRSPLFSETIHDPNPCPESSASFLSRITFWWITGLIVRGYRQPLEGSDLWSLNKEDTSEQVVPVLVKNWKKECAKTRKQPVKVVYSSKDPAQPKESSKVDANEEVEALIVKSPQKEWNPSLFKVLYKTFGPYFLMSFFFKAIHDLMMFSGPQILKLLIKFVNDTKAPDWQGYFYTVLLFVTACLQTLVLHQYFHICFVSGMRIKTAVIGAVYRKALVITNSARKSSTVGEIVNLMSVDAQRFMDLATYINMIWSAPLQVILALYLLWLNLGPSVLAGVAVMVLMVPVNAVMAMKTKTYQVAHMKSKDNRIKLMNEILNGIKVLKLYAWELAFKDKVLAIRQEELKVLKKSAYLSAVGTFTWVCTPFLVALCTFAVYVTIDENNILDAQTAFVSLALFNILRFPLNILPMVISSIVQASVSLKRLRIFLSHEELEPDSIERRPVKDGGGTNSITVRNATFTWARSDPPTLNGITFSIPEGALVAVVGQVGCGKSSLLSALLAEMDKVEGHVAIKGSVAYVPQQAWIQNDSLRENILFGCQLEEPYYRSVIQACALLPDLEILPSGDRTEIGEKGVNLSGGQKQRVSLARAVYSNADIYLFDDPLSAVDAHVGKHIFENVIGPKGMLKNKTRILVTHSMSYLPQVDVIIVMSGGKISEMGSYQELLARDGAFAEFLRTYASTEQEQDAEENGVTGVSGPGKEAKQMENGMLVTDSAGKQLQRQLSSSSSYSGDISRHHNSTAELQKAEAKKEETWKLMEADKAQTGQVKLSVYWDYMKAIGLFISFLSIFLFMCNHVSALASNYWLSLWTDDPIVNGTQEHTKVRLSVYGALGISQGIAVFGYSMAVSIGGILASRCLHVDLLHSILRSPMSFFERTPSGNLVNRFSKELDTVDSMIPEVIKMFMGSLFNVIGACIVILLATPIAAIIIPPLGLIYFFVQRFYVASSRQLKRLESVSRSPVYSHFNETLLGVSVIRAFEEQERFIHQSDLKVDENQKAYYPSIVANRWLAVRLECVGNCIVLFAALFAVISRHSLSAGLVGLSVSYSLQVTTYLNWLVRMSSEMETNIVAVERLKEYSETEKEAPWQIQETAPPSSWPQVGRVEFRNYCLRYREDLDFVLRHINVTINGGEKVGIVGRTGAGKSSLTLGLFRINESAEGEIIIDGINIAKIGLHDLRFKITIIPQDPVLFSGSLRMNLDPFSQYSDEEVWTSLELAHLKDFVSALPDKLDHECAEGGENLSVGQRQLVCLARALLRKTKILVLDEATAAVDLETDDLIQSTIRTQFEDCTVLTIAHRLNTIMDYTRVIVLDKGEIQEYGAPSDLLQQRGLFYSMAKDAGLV
# Sequence of UniProt P61073 (whole entry, looked up): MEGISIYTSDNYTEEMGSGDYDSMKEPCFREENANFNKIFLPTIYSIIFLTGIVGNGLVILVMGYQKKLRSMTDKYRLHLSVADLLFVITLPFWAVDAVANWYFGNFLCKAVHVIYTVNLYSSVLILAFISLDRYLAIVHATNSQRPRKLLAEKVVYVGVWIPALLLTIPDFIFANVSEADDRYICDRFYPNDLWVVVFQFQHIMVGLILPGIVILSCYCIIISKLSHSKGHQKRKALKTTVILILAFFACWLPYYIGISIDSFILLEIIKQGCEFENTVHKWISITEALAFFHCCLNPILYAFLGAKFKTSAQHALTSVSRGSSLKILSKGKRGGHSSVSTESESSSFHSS
# Sequence of UniProt P08183 (whole entry, looked up): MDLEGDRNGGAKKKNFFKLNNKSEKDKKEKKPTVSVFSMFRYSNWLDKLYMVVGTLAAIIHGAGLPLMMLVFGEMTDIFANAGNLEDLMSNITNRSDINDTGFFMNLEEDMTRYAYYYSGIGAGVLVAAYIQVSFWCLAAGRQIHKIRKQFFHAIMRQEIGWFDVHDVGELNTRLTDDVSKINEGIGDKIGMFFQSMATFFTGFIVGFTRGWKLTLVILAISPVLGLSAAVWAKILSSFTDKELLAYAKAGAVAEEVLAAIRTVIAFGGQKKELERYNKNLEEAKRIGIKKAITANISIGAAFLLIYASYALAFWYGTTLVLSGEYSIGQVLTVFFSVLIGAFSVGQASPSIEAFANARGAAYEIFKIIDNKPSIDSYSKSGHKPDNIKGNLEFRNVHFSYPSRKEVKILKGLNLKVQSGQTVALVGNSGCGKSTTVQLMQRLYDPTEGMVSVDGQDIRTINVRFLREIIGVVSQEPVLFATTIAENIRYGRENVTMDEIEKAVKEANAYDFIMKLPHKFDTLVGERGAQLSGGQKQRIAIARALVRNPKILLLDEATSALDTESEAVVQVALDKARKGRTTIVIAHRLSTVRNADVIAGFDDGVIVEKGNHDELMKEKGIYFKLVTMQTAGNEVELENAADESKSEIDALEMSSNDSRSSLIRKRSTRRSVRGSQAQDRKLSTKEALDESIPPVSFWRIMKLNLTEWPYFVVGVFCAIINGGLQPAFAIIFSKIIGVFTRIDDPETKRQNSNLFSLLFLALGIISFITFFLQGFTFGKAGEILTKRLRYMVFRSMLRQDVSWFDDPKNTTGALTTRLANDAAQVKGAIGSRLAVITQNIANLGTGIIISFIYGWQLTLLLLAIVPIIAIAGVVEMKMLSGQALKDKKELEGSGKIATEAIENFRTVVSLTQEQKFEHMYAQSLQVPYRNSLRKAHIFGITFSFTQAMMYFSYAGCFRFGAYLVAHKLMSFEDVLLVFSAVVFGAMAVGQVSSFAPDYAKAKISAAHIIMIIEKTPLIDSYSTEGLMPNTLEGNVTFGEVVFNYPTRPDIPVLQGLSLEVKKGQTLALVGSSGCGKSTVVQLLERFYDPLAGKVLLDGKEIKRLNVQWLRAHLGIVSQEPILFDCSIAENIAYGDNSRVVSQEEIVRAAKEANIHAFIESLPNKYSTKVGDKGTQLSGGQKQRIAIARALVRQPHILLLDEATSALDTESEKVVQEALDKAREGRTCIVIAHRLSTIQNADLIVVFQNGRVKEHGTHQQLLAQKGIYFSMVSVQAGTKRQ
Structure (SMILES),target,test,test system,setting,how to read,measurement,result
C=CC(=O)Nc1cc(Nc2nccc(-c3cn(C)c4ccccc34)n2)c(OCC(F)(F)F)nc1N(C)CCN(C)C,CYP2C8,"enzyme activity, inhibitor","human, liver microsomes",3.33 µM,,activity vs control,102%
CNC(=O)Oc1cc(C)c([S+](C)[O-])c(C)c1 (stereo not shown),CYP2C9,inhibitor,human liver microsomes,"2 µM, pH 7.4, with: diclofenac",,inhibition,< 0%
Cc1cn2c(C(=O)NCc3ccc(C(F)(F)F)cc3)c(C)nc2s1,CYP2C8,inhibitor,,,,IC50,> 20 µM
CCCS(=O)(=O)c1ccc2[nH]c(NC(=O)OC)nc2c1,CYP2C8,,human liver microsomes,"10 µM, pH 7.4, with: paclitaxel",,inhibition,< 0%
COc1ccc(CCNc2cc(-c3ccccc3)nc3ncnn23)cc1,CYP2C19,,,,,IC50,< 1 µM
N=C(N)NCCC[C@@H](NC(=O)[C@H](N)Cc1c[nH]c2ccccc12)C(=O)N[C@H](CCCCN)C(=O)N[C@H](Cc1c[nH]c2ccccc12)C(=O)N[C@H](CCCNC(=N)N)C(=O)N[C@H](CCCCN)C(=O)N[C@H](Cc1c[nH]c2ccccc12)C(=O)N[C@H](CCCNC(=N)N)C(=O)N[C@H](CCCCN)C(=O)N[C@H](Cc1c[nH]c2ccccc12)C(=O)N[C@H](CCCNC(=N)N)C(=O)N[C@H](CCCCN)C(N)=O,pepsin,RP-HPLC,,"6 h, 37 °C",,remaining peptide,> 90%
CC(C)(O)c1ccccc1CC[C@H](c1cccc(/C=C/c2ccc3ccc(Cl)cc3n2)c1)S(=O)(=O)CC1(CC(=O)O)CC1,CYP2C9,inhibitor,human liver microsomes,"2 µM, pH 7.4, with: diclofenac",,inhibition,44.5%
O=C(CN1CCN(c2cc3c(cc2F)c(=O)c(C(=O)O)cn3C2CC2)CC1)Nc1ccc(Cl)cc1,"ATP-dependent translocase ABCB1 (ABCB1, Homo sapiens, UniProt P08183)","inhibitor, measured: Oregon Green paclitaxel",LLC-PK1 overexpressing ABCB1,"4 µM, with: Oregon Green paclitaxel 400 nM",,intracellular accumulation,increased
CCCCCC1=C(NCC)C(=O)C(C/C=C(\C)CCC=C(C)C)=C(O)C1=O,human SLC transporters,transporter uptake,,concentration not given,,inhibition,no inhibition
C=CCc1ccc(O)c(-c2cc(CC=C)cc(O)c2O)c1,"Multidrug resistance-associated protein 1 (ABCC1, Homo sapiens, UniProt P33527)",calcein-AM efflux,,50 µM,relative to: verapamil 30 µM,inhibition,6.2 ± 1.3%
CCN(CC)CCOc1ccc(-c2nnn(Cc3ccc(OC)cc3)c2N)cc1,CYP2C19,"enzyme activity, inhibitor",,concentration not given,,inhibition,no inhibition
CC(C)(O)c1ccccc1CC[C@H](c1cccc(/C=C/c2ccc3ccc(Cl)cc3n2)c1)[S+]([O-])CC1(CC(=O)O)CC1 (stereo partly shown),CYP2C9,inhibitor,human liver microsomes,"2 µM, pH 7.4, with: diclofenac",,inhibition,33.1%
CC(C)C[C@H](NC(=O)[C@H](CCCCN)NC(=O)[C@H](CCCNC(=N)N)NC(=O)[C@@H](CC(C)C)NC(=O)[C@H](Cc1ccc(C(C)(C)C)cc1)NC(=O)[C@H](CC(=O)O)NC(=O)[C@H](CCCCN)NC(=O)[C@@H](CC(C)C)NC(=O)[C@H](CCCNC(=N)N)NC(=O)[C@H](CCC(N)=O)NC(=O)[C@@H](NC(=O)[C@@H](CC(C)C)NC(=O)[C@H](CCCNC(=N)N)NC(=O)[C@H](CCCCN)NC(=O)[C@H](Cc1ccc(-c2ccccc2)cc1)NC(=O)CN)C(C)C)C(=O)N[C@H](C(N)=O)C(C)C,sspA,"substrate, SDS-PAGE",,"24 h, pH 7.4, 37 °C",,proteolytic stability,stable
CNC(=O)Oc1cc(C)c(S(C)(=O)=O)c(C)c1,CYP2C8,,human liver microsomes,"2 µM, pH 7.4, with: paclitaxel",,inhibition,< 0%
CC[C@@H]1CN2CCc3c([nH]c4cccc(OC)c34)[C@@H]2C[C@@H]1/C(=C\OC)C(=O)OC,CYP2C9,recombinant enzyme metabolism,,"2 µM, 60 min",,remaining compound,99%
CC(C)C[C@H](NC(=O)[C@H](CC(N)=O)NC(=O)[C@H](CCCNC(=N)N)NC(=O)[C@@H](CC(C)C)NC(=O)[C@H](Cc1ccc(-c2ccccc2)cc1)NC(=O)[C@H](CC(=O)O)NC(=O)[C@H](CCCCN)NC(=O)[C@@H](CC(C)C)NC(=O)[C@H](CCCNC(=N)N)NC(=O)[C@H](CCC(N)=O)NC(=O)[C@@H](NC(=O)[C@@H](CC(C)C)NC(=O)[C@H](CCCNC(=N)N)NC(=O)[C@H](CCCCN)NC(=O)[C@H](Cc1ccc(-c2ccccc2)cc1)NC(=O)CN)C(C)C)C(=O)N[C@H](C(N)=O)C(C)C,sspA,"substrate, tricine SDS-PAGE",,"pH 8, 37 °C, with: peptide:protease 40:1",,stability time,≥ 24 h
C[C@]12CC[C@H](O)CC1CCC1C2[C@H](O)C(=O)[C@]2(C)[C@@H](c3ccc(=O)oc3)CC[C@]12O (stereo partly shown),"Sulfotransferase 2A1 (SULT2A1, Homo sapiens, UniProt Q06520)",substrate,human brain cytosol,pH 7.4,,sulfation rate,0.023 pmol/min/mg protein
[64Cu+2].c1ccc(CNCc2ccc(CN3CCCNCCNCCCNCC3)cc2)nc1,CXCR4,,"NOD/SCID mouse, U87 and U87-stb-CXCR4 xenografts","iv, 90 min, no blocking dose",relative to: U87 tumour over blood,tumour-to-tissue ratio,4.83 ± 2.26
Cc1ccc2nc(C)c(C(=O)NCc3ccc(C(F)(F)F)cc3)n2c1,CYP2C19,inhibitor,,,,IC50,> 20 µM
CN1C(=O)[C@@H](Cc2ccc(O)cc2)NC(=O)CNC(=O)[C@H](Cc2ccc3ccccc3c2)NC(=O)[C@H](CCCNC(=N)N)NC(=O)[C@H]1CCCNC(=O)c1ccc(CNC(=O)CN2CCN(CC(=O)O)CCN(CC(=O)O)CCN(CC(=O)O)CC2)cc1 [gallium-68 labelled],"C-X-C chemokine receptor type 4 (CXCR4, Homo sapiens, UniProt P61073)",PET imaging,"human, lung",,,SUVmean,0.75
O=C1Cc2cc(CCN3CCN(C4=NS(=O)(=O)c5ccccc54)CC3)c(Cl)cc2N1,CYP2C8,,human liver microsomes,"10 µM, pH 7.4, with: paclitaxel",,inhibition,< 0%
CC(C)C[C@H](NC(=O)[C@H](C)N)C(=O)N[C@@H](Cc1ccc(O)cc1)C(=O)N[C@@H](CCCCN)C(=O)N[C@@H](CCCCN)C(=O)N[C@@H](CC(C)C)C(=O)N[C@@H](CC(C)C)C(=O)N[C@@H](CCCCN)C(=O)N[C@@H](CCCCN)C(=O)N[C@@H](CC(C)C)C(=O)N[C@@H](CC(C)C)C(=O)N[C@@H](CCCCN)C(=O)N[C@@H](CO)C(=O)N[C@@H](C)C(=O)N[C@@H](CCCCN)C(=O)N[C@@H](CCCCN)C(=O)N[C@@H](CC(C)C)C(=O)NCC(=O)O,Escherichia coli OmpT,substrate,"E. coli BL21 expressing ompT, PBS","2 µg/µL, room temperature",,time to cleavage,≤ 2 min

# Some of these lines once more:
Structure (SMILES),target,test,test system,setting,how to read,measurement,result
[64Cu+2].c1ccc(CNCc2ccc(CN3CCCNCCNCCCNCC3)cc2)nc1,CXCR4,,"NOD/SCID mouse, U87 and U87-stb-CXCR4 xenografts","iv, 90 min, no blocking dose",relative to: U87 tumour over blood,tumour-to-tissue ratio,4.83 ± 2.26
Cc1ccc2nc(C)c(C(=O)NCc3ccc(C(F)(F)F)cc3)n2c1,CYP2C19,inhibitor,,,,IC50,> 20 µM
CN1C(=O)[C@@H](Cc2ccc(O)cc2)NC(=O)CNC(=O)[C@H](Cc2ccc3ccccc3c2)NC(=O)[C@H](CCCNC(=N)N)NC(=O)[C@H]1CCCNC(=O)c1ccc(CNC(=O)CN2CCN(CC(=O)O)CCN(CC(=O)O)CCN(CC(=O)O)CC2)cc1 [gallium-68 labelled],"C-X-C chemokine receptor type 4 (CXCR4, Homo sapiens, UniProt P61073)",PET imaging,"human, lung",,,SUVmean,0.75
